Assay results of several laboratories.
A part holds a random share of what one study measured.
UniProt P45985, sequence (whole entry, looked up): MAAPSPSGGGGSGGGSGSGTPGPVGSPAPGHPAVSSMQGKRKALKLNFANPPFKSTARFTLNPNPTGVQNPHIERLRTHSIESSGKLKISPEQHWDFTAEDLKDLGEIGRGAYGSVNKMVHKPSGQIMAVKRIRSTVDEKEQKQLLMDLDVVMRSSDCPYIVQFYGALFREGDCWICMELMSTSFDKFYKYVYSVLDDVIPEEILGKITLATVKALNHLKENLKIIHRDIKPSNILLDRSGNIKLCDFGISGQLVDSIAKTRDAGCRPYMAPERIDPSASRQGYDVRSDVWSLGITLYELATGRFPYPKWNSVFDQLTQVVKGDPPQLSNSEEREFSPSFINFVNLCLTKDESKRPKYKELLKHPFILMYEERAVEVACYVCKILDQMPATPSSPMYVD
UniProt P08581, sequence (whole entry, looked up): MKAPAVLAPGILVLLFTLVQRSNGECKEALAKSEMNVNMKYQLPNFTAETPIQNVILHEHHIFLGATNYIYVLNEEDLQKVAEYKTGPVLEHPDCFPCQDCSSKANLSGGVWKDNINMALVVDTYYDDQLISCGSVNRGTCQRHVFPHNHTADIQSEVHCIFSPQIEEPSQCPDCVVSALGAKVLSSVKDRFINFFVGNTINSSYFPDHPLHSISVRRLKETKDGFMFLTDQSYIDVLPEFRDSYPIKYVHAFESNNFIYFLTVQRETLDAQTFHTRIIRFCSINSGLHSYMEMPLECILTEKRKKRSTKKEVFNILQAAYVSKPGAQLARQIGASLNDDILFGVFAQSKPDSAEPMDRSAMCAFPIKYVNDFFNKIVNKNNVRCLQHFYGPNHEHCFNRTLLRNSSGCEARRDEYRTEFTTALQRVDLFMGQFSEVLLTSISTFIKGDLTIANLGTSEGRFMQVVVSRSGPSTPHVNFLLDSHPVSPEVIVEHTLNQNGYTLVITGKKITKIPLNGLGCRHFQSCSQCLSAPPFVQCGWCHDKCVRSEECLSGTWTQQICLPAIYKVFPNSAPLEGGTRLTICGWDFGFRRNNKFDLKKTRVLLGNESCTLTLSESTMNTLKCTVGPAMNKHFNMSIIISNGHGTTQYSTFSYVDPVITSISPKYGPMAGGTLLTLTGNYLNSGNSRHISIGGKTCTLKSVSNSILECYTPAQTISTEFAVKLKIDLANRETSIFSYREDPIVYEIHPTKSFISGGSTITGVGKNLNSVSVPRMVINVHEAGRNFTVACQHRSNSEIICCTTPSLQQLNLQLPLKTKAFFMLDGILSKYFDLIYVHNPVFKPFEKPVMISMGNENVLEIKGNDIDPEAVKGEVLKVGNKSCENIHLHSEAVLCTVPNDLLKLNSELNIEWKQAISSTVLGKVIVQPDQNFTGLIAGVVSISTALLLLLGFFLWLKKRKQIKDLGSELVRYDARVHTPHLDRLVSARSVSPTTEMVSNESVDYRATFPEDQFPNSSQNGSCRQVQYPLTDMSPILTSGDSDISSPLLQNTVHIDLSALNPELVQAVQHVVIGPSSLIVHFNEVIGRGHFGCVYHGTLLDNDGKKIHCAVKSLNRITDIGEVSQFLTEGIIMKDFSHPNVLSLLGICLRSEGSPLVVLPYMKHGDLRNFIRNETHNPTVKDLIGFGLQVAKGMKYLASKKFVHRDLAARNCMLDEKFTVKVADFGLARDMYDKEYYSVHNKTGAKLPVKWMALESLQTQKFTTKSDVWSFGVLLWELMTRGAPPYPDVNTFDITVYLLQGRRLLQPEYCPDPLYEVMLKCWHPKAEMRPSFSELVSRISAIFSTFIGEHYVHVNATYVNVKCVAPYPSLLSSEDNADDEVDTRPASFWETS
UniProt P08069, sequence (whole entry, looked up): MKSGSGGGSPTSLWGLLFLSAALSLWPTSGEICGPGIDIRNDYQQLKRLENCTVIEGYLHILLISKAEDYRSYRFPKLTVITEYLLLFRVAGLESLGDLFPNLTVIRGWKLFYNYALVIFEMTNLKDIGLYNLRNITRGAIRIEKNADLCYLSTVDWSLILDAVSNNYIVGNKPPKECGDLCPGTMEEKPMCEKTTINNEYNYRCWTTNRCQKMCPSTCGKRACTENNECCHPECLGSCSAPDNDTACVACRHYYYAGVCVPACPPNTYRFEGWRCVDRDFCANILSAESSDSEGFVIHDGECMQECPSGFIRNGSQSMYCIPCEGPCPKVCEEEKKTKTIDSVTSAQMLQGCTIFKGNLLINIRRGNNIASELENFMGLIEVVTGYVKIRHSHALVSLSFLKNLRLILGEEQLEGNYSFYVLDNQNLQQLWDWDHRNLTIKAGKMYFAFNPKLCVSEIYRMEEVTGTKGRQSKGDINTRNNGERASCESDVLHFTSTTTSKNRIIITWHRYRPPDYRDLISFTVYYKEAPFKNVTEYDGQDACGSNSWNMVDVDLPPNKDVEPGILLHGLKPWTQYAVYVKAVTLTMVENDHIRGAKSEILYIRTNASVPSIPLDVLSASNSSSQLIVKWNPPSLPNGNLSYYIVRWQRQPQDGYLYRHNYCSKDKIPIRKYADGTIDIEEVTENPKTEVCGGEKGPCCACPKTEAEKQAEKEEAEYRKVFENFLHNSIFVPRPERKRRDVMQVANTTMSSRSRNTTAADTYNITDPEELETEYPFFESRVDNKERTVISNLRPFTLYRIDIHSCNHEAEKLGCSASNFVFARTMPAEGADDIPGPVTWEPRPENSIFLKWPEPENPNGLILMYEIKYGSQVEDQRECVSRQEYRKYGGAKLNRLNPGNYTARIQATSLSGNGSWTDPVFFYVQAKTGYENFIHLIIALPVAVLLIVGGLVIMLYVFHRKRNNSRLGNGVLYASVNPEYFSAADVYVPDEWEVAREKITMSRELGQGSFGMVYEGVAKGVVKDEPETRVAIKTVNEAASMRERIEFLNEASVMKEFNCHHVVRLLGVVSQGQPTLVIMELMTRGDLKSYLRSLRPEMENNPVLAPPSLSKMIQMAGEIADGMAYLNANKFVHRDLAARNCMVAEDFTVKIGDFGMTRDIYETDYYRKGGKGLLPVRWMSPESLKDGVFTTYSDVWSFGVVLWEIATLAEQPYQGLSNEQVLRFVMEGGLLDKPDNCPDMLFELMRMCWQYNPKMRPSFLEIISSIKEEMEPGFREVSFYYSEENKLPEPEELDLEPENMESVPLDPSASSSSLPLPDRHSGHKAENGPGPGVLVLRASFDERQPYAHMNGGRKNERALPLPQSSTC
UniProt P42336, sequence (whole entry, unmodified, looked up): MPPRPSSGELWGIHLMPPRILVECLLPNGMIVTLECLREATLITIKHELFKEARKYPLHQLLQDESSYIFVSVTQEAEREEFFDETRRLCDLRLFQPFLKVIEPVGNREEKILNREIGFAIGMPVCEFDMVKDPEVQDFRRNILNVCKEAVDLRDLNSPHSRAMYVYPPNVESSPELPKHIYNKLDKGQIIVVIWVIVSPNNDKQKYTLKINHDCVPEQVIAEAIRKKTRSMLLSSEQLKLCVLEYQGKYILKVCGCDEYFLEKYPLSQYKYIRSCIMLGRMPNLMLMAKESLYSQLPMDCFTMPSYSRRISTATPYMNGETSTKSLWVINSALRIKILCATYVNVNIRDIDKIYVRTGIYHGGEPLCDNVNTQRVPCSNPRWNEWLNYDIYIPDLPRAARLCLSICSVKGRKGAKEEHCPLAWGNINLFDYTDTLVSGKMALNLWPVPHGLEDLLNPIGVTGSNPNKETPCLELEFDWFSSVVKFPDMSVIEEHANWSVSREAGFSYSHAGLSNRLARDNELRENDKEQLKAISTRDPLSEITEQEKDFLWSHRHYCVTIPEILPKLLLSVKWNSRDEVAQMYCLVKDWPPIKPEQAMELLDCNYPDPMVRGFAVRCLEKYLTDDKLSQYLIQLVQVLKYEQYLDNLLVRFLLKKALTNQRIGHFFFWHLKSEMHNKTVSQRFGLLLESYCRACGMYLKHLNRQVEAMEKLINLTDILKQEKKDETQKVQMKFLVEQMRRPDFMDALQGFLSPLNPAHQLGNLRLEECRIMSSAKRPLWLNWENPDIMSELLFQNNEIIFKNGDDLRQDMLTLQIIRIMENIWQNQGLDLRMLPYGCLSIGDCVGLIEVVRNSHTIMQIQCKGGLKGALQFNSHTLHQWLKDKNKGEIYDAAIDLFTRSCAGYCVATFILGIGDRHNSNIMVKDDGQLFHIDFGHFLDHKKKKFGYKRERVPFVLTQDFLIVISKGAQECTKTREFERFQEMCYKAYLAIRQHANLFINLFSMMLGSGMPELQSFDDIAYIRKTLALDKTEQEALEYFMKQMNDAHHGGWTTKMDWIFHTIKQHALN
UniProt Q13153, sequence (whole entry, looked up): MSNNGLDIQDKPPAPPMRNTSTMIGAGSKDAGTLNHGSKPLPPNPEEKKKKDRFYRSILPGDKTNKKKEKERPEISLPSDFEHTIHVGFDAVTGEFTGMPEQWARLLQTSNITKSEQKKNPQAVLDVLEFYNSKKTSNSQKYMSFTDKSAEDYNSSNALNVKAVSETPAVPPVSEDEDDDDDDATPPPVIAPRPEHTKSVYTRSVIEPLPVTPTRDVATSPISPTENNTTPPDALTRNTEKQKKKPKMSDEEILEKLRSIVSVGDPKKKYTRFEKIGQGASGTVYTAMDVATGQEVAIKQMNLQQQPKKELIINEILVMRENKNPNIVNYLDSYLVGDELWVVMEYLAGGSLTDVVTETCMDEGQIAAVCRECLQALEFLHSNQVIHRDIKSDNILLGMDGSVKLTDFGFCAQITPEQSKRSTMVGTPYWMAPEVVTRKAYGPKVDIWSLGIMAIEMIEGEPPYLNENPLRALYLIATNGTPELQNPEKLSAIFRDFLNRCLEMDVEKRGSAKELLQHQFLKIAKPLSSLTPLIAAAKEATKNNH

Series 1
Target: Serine/threonine-protein kinase pim-3 (PIM3, Homo sapiens, UniProt Q86V86)
Observed: enzyme activity
Mode: inhibitor
Tested at: 0.5 µM
Relative to: control
| Compound | remaining activity [%] |
| --- | --- |
| Fc1ccc(-c2nc3n(c2-c2ccncc2)CCS3)cc1 | 105 |
| Cc1cncc2cccc(S(=O)(=O)N3CCCN(C(=O)CN)C[C@@H]3C)c12 | 103 |
| CC#CC(=O)Nc1cc2c(Nc3ccc(F)c(Cl)c3)ncnc2cn1 | 89.1 |
| Nc1ncnc2c1cnn2-c1ccccc1 | 91.4 |
| O=C1Cc2c([nH]c3ccc([N+](=O)[O-])cc23)-c2ccccc2N1 | 62.3 |
| Nc1nccc(-c2c(-c3ccc(F)cc3)ncn2C2CCNCC2)n1 | 96 |
| N#CC(=C(N)Sc1ccc(N)cc1)c1ccccc1C(F)(F)F | 111 |

Series 2
SMILES: CNCc1ccccc1-c1csc([C@@H](C)Nc2nc(C)nc3cc(OC)c(OC)cc23)c1
Observed: cell-free assay
Method: competition with immobilised ligand
Tested at: 1 µM
| target | remaining binding [%] |
| --- | --- |
| PRKCH (Homo sapiens, UniProt P24723) | 100 |
| MAP3K7 (Homo sapiens, UniProt O43318) | 70 |
| MAP2K4 (Homo sapiens, UniProt P45985) | 86 |
| TLK2 (Homo sapiens, UniProt Q86UE8) | 90 |
| MAP2K3 (Homo sapiens, UniProt P46734) | 80 |
| YES1 (Homo sapiens, UniProt P07947) | 100 |
| IGF1R (Homo sapiens, UniProt P08069) | 100 |
| STK25 (Homo sapiens, UniProt O00506) | 89 |
| PIK3CA (Homo sapiens, UniProt P42336, E542K) | 80 |
| MET (Homo sapiens, UniProt P08581) | 95 |
| NEK1 (Homo sapiens, UniProt Q96PY6) | 91 |
| Cyclin-dependent kinase 4, with cyclin D3 (CDK4, Homo sapiens, UniProt P11802) | 90 |
| PAK1 (Homo sapiens, UniProt Q13153) | 97 |
| MARK1 (Homo sapiens, UniProt Q9P0L2) | 100 |
| ACVRL1 (Homo sapiens, UniProt P37023) | 87 |

Series 3
SMILES: O=C(c1cc(Cc2n[nH]c(=O)c3ccccc23)ccc1F)N1CCN(C(=O)C2CC2)CC1
Cell line: UWB1289
Observed: cell growth or viability
Method: ATP luminescence
Time: 6 days
| conditions | viability |
| --- | --- |
| 0.63 µM | 80.1% |
| 5 µM | 56.9% |
| 0.31 µM | 79.1% |
| 2.5 µM | 68.8% |

Series 4
Cell line: HaCaT
Tested at: 100 µM
Time: 60 h
| SMILES | viability [%] |
| --- | --- |
| O=C1Nc2ccc(Cl)cc2[C@@](C#CC2CC2)(C(F)(F)F)O1 | 17.4 |
| NS(=O)(=O)Cc1noc2ccccc12 | 136 |
| NC[C@@H]1O[C@H](O[C@H]2[C@@H](O)[C@H](O[C@@H]3[C@@H](O)[C@H](N)C[C@H](N)[C@H]3O[C@H]3O[C@H](CO)[C@@H](O)[C@H](O)[C@H]3N)O[C@@H]2CO)[C@H](N)[C@@H](O)[C@@H]1O | 135 |
| CC(C)(S)C(N)C(=O)O (racemic) | 162 |
| CC(CN(C)C)CN1c2ccccc2CCc2ccccc21 (stereo not drawn) | 107 |
| NS(=O)(=O)c1cc2c(cc1Cl)NCNS2(=O)=O | 127 |
| CCN(CC)CCc1nc(-c2ccccc2)no1 | 17.4 |

Some of these lines once more (series 4):
| SMILES | viability [%] |
| --- | --- |
| CC(CN(C)C)CN1c2ccccc2CCc2ccccc21 (stereo not drawn) | 107 |
| CC(C)(S)C(N)C(=O)O (racemic) | 162 |
